Published values pooled from the literature.
Every numbered part comes from another study and shows a few of its results, in no order. Numbers after ± are the reported error.
Chain of UniProt O60674 (whole entry, looked up): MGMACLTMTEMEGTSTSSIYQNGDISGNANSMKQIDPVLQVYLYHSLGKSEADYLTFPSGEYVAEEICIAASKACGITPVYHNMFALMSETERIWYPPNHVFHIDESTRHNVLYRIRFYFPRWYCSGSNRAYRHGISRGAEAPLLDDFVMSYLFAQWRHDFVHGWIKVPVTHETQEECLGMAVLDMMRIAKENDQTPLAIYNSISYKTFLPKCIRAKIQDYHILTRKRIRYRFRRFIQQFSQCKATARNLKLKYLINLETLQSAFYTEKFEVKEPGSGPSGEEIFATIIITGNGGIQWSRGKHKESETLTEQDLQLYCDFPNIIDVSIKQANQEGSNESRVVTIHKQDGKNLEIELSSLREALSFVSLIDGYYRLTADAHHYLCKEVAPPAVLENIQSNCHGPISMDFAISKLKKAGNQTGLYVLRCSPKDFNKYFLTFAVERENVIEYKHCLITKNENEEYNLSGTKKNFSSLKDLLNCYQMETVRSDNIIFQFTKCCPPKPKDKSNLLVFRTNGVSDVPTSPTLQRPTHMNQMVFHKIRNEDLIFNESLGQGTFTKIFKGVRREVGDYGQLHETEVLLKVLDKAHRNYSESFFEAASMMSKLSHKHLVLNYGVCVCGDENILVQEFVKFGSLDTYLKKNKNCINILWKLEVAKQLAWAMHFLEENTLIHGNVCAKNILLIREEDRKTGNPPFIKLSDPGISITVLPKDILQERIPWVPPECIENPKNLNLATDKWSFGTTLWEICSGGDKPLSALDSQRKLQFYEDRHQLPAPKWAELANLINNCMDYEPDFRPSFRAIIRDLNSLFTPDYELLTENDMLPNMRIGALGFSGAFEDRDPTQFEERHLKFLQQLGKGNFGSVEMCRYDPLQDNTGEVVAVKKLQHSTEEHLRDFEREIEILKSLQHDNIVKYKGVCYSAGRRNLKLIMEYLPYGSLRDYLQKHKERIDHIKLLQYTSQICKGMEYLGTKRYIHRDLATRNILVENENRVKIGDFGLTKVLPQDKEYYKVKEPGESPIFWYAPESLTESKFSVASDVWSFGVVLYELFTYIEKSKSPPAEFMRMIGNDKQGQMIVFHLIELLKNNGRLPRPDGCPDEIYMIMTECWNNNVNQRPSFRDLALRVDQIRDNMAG
Chain of UniProt P42336 (whole entry, unmodified, looked up): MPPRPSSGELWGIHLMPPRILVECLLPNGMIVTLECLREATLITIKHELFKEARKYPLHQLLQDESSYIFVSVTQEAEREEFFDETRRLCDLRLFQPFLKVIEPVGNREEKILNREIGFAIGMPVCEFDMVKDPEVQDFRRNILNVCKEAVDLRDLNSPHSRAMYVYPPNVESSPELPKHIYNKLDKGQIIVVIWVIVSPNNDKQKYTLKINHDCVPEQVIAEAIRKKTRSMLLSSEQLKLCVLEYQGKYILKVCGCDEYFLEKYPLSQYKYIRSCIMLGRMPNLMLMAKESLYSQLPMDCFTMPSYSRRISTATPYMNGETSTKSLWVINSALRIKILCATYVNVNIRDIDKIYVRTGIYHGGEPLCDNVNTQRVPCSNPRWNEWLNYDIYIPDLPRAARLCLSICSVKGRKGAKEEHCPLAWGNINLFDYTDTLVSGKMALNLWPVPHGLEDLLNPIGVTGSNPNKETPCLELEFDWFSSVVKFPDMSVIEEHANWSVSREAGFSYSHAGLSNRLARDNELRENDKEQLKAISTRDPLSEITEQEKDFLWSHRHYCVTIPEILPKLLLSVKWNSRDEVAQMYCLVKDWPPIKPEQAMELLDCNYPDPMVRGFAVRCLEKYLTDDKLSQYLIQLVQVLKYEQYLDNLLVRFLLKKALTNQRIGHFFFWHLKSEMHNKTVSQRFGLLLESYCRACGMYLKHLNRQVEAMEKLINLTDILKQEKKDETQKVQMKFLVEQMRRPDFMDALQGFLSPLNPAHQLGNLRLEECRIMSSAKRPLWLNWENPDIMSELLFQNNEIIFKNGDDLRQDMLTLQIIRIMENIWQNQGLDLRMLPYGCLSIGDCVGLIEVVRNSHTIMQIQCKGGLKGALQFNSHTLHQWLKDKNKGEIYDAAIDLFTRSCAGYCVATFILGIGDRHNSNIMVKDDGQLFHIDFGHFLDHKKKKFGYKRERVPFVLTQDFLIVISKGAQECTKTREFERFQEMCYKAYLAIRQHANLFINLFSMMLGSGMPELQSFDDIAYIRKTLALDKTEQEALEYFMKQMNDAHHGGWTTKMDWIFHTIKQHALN
Chain of UniProt P07949 (whole entry, looked up): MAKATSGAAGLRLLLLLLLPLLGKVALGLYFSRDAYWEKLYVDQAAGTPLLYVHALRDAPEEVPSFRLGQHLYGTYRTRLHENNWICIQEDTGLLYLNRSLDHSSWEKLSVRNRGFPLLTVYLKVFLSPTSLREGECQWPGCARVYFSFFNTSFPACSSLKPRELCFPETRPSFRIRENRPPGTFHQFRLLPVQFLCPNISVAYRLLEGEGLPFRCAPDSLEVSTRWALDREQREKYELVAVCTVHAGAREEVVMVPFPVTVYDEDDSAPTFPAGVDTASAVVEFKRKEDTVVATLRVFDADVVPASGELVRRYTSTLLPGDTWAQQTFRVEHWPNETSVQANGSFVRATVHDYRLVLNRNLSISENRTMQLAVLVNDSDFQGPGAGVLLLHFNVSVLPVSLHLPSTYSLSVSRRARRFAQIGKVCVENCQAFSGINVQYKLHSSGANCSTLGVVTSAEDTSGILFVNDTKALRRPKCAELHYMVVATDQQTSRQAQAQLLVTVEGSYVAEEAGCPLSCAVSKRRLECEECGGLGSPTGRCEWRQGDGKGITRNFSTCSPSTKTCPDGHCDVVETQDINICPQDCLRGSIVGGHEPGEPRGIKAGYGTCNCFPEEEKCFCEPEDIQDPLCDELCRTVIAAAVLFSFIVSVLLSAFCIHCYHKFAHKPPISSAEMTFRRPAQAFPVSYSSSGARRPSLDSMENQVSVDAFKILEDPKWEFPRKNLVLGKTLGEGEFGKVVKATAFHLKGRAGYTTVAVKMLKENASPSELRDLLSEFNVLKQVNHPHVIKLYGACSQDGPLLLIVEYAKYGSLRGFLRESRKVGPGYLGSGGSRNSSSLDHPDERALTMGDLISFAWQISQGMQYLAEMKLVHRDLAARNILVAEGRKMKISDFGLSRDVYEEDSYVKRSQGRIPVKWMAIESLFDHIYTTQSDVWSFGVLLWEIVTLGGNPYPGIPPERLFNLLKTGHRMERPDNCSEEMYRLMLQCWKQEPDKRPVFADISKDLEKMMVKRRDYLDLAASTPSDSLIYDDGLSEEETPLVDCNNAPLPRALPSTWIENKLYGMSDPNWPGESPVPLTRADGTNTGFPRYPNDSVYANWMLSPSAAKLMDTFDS
Chain of UniProt Q9UKI8 (whole entry, looked up): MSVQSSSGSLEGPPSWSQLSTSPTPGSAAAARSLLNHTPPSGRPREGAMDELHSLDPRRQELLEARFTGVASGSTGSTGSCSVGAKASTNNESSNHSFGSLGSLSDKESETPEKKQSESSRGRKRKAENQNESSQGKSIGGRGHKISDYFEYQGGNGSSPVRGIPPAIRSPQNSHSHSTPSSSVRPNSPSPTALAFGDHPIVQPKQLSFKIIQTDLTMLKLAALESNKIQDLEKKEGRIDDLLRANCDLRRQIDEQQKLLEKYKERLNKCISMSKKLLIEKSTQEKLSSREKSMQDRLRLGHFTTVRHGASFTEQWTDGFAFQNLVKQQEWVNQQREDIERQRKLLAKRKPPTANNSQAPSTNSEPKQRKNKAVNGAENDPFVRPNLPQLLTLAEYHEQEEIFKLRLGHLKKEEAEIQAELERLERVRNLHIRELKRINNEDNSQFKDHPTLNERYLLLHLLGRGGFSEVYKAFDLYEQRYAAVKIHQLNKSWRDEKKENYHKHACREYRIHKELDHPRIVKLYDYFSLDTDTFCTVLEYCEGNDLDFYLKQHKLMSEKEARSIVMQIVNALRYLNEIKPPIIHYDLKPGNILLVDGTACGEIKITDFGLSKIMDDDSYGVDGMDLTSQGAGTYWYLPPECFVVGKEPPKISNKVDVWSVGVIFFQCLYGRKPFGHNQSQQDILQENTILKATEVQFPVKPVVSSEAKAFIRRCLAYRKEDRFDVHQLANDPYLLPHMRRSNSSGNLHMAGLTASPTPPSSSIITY

Series 1 — observed: enzyme activity; mode: inhibitor; concentration: 0.5 µM; reference: control
Target: Serine/threonine-protein kinase B-raf (BRAF, Homo sapiens, UniProt P15056)
Chain of UniProt P15056 (whole entry, looked up): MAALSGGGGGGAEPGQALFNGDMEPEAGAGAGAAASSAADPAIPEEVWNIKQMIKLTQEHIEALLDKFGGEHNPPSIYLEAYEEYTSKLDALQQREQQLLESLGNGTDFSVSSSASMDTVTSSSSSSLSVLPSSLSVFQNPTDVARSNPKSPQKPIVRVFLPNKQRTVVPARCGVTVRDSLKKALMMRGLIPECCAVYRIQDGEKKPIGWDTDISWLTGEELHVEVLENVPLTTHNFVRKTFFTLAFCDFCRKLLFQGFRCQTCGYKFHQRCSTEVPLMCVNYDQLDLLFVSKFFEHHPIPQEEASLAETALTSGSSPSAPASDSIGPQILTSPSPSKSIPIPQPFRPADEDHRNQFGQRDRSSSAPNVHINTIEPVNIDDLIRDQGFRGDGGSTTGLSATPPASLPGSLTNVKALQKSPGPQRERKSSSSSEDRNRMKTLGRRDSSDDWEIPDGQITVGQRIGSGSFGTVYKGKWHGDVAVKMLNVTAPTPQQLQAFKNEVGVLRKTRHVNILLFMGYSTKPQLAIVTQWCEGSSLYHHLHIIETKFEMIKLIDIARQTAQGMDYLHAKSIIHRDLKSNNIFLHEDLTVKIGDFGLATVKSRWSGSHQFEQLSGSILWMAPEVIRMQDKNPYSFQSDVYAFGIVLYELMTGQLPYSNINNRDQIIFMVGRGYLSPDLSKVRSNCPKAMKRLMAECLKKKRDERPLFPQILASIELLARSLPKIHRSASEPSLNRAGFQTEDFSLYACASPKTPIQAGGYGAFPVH
Structure (SMILES) | remaining activity
NC(=O)c1ccc(-c2nc(-c3ccc4c(c3)OCCO4)c(-c3ccccn3)[nH]2)cc1 | 96.8%
C[C@@H](N)[C@H]1CC[C@H](C(=O)Nc2ccncc2)CC1 | 92.9%
O=C1NC(=O)/C(=C/c2ccc3c(c2)OC(F)(F)O3)S1 | 96.3%
CC(C)(C)c1nc2c3cc[nH]c(=O)c3c3cc(F)ccc3c2[nH]1 | 117%

Series 2 — observed: cell-free assay; technique: competition with immobilised ligand; concentration: 1 µM
Compound: CO[C@H]1CC[C@H](CNc2ccc(S(=O)(=O)NC(=O)c3ccc(N4CCN(CC5=C(c6ccc(Cl)cc6)CC(C)(C)CC5)CC4)cc3Oc3cnc4[nH]ccc4c3)cc2[N+](=O)[O-])CC1
target | remaining binding
PIK3CA (Homo sapiens, UniProt P42336, C420R) | 75%
PAK3 (Homo sapiens, UniProt O75914) | 64%
RET (Homo sapiens, UniProt P07949) | 100%
GRK7 (Homo sapiens, UniProt Q8WTQ7) | 100%
PDPK1 (Homo sapiens, UniProt O15530) | 72%
Tyrosine-protein kinase JAK2, JH1 (JAK2, Homo sapiens, UniProt O60674) | 89%
FYN (Homo sapiens, UniProt P06241) | 97%
Ribosomal protein S6 kinase alpha-1, N-terminal kinase domain (RPS6KA1, Homo sapiens, UniProt Q15418) | 69%
Non-receptor tyrosine-protein kinase TYK2, JH2 (TYK2, Homo sapiens, UniProt P29597) | 67%
TLK1 (Homo sapiens, UniProt Q9UKI8) | 82%
MAP4K4 (Homo sapiens, UniProt O95819) | 100%

Series 3 — cell line: A-375; concentration: 100 µM; time: 18 h
SMILES | viability [%]
Nc1cc(-c2ccncc2)c[nH]c1=O | 97.1
CC(=O)O[C@]1(C(C)=O)CC[C@H]2[C@@H]3C=C(C)C4=CC(=O)CC[C@]4(C)[C@H]3CC[C@@]21C | 69.5
O=C(O)Cc1ccc(-c2ccccc2)cc1 | 98.5
NC(CO)C(=O)NNCc1ccc(O)c(O)c1O (stereo not drawn) | 50.8
CCc1nn(CCCN2CCN(c3cccc(Cl)c3)CC2)c(=O)n1CCOc1ccccc1 | 16.9
COc1ccc(/C=C/C(=O)Nc2ccccc2C(=O)O)cc1OC | 70.8
O=C(Nc1ccc([N+](=O)[O-])cc1Cl)c1cc(Cl)ccc1O | 45.2
NC1C(O)O[C@H](CO)C(O[C@@H]2O[C@H](CO)C(O[C@@H]3O[C@H](CO)[C@@H](O)[C@H](O)[C@H]3N)[C@H](O)C2N)C1O (stereo partly drawn) | 101

Further values, each from its own experiment
SMILES | host | matrix | dose | endpoint | value
OCCN1CCN(CCCN2c3ccccc3Sc3ccc(Cl)cc32)CC1 | mouse | serum | dose not given | serum albumin | 2.3 ± 0.2 mg/dL

Some of these lines once more (series 2):
target | remaining binding
PIK3CA (Homo sapiens, UniProt P42336, C420R) | 75%
PAK3 (Homo sapiens, UniProt O75914) | 64%
RET (Homo sapiens, UniProt P07949) | 100%
